Assay results collected from several papers.
Every numbered part comes from another study and shows a few of its results, in no order. “And” joins repeats or separate records; there may be more than shown.
Chain of UniProt Q9NY57 (whole entry, looked up): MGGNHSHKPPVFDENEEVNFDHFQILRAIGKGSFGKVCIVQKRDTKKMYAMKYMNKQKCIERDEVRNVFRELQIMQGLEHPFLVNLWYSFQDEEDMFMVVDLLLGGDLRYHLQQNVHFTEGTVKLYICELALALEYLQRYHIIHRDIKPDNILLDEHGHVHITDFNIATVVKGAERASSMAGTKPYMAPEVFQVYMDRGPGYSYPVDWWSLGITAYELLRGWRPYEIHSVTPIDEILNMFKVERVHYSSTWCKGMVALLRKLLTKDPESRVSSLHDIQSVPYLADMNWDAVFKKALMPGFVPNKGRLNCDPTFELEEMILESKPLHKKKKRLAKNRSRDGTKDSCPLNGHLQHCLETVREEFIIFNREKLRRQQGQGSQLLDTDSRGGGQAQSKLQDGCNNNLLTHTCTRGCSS
Chain of UniProt Q13976 (whole entry, looked up): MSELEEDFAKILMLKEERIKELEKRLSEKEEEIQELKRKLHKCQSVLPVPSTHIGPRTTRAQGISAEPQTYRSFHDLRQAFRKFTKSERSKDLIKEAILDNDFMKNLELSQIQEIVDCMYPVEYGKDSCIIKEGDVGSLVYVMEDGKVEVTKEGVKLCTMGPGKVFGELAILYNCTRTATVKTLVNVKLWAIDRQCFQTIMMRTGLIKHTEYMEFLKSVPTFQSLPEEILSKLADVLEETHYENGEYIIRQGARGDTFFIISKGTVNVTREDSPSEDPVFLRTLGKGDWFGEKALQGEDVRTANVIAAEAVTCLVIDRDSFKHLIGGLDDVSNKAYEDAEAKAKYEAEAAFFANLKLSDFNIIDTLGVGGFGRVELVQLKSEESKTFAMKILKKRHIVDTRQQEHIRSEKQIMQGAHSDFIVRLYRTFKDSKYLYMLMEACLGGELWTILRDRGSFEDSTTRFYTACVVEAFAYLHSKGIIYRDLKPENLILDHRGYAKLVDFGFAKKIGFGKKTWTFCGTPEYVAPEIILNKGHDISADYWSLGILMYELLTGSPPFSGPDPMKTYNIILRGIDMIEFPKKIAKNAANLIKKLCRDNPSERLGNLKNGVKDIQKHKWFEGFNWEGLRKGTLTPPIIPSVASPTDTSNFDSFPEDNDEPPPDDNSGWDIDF
Chain of UniProt P35626 (whole entry, looked up): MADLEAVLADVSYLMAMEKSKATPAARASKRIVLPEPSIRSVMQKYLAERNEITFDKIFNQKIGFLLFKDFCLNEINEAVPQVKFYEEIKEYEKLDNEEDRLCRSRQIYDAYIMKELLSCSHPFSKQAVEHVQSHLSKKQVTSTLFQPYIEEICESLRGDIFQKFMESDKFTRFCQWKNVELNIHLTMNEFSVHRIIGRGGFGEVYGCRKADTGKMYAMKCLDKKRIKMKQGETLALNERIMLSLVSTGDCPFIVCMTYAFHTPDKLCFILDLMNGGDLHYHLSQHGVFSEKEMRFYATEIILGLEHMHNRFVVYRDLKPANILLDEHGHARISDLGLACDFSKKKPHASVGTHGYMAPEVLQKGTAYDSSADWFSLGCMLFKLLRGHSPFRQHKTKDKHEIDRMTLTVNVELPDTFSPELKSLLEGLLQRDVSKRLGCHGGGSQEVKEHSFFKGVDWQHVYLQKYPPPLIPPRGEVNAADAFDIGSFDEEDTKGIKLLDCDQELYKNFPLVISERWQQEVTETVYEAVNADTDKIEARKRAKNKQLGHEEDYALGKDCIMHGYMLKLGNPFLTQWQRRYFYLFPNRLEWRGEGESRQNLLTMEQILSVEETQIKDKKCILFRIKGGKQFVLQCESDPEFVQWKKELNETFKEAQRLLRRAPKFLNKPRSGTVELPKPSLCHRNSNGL
Chain of UniProt Q96RR4 (whole entry, looked up): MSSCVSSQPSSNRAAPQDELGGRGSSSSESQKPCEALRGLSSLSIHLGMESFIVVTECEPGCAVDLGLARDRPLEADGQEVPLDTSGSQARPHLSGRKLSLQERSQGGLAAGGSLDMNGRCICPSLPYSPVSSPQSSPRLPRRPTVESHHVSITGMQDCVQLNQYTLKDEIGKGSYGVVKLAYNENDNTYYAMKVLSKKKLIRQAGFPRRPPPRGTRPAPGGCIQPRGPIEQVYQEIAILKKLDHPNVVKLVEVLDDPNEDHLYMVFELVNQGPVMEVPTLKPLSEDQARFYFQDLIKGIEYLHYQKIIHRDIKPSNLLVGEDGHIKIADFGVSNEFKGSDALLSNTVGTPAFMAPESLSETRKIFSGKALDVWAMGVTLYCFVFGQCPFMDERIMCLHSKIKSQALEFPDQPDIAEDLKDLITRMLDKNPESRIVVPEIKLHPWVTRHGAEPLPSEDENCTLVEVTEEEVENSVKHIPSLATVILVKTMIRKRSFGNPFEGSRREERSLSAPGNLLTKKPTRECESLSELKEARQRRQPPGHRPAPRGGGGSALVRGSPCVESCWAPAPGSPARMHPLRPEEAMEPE
Chain of UniProt P11802 (whole entry, looked up): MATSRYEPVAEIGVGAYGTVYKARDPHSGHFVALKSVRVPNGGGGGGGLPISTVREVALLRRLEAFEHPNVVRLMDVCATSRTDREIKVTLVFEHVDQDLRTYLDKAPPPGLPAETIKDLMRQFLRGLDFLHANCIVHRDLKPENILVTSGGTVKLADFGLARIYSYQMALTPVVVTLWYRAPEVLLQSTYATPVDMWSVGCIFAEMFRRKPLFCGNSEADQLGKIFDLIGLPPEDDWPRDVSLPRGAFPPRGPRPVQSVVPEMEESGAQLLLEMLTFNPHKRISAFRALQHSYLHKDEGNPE
Chain of UniProt P45984 (whole entry, looked up): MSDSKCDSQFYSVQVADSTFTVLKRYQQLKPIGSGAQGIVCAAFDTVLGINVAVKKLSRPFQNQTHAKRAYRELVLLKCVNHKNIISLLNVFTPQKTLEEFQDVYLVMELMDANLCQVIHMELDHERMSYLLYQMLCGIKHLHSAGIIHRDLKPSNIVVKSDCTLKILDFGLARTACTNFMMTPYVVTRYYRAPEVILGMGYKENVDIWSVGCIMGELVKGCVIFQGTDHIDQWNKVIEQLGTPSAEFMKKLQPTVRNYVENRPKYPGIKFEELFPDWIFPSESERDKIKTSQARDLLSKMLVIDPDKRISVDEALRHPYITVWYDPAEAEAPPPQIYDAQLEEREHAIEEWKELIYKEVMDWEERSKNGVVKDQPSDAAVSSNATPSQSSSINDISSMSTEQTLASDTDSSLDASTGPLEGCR
Chain of UniProt Q00535 (whole entry, looked up): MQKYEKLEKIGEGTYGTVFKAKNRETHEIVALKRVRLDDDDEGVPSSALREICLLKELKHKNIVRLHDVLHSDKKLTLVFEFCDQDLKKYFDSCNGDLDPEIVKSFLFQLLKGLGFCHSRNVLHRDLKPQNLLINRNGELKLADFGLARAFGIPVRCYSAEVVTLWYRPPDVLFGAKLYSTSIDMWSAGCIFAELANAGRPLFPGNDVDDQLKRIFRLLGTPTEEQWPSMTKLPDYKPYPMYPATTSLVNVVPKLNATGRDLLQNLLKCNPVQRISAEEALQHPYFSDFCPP
Chain of UniProt O95747 (whole entry, looked up): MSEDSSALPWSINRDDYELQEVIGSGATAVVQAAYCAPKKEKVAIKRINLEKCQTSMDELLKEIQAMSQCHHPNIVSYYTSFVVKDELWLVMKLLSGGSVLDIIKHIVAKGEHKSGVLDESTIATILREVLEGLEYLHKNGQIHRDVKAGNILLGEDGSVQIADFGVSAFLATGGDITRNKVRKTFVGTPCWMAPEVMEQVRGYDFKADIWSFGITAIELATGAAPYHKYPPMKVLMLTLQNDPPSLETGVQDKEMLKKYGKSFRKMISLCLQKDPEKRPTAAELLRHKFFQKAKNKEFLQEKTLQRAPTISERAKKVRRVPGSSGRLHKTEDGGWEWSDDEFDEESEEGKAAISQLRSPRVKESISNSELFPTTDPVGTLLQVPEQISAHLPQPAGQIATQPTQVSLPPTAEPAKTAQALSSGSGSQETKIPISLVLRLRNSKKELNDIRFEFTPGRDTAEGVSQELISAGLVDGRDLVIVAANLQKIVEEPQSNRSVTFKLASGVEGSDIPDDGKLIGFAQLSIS
Chain of UniProt P28482 (whole entry, looked up): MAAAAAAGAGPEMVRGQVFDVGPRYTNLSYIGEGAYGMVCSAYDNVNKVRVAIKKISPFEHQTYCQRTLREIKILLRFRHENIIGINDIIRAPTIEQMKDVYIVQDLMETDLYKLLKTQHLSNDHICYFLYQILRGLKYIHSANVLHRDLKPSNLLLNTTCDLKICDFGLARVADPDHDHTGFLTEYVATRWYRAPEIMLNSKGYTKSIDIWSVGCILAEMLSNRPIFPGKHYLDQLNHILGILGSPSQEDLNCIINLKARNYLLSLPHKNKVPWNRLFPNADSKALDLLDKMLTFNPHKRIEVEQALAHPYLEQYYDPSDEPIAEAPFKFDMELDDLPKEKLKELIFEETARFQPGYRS

Block 1 — organism: Leishmania donovani; strain: DD8; medium: promastigotes; measurement: promastigote number
SMILES: c1ccc(Oc2ccc(Nc3c4c(nc5ccccc35)CCC4)cc2)cc1
6.66 µM, 48 h: 1470
3.33 µM, 72 h: 15600 and 15700
3.33 µM, 48 h: 15700 and 15600
0.66 µM, 72 h: 5.66e+06 and 5.65e+06
16.66 µM, 48 h: 1240
33.33 µM, 72 h: 1570 and 1240
0.33 µM, 72 h: 8.16e+06 and 8.15e+06
1.66 µM, 48 h: 135000
16.66 µM, 72 h: 1250 and 1550
6.66 µM, 72 h: 1570 and 1260

Block 2 — Structure (SMILES): CCN(CC)CCCCN1c2ccccc2Oc2ccc(Cl)cc21; effect on: enzyme activity; mode: inhibitor; tested at: 0.5 µM; baseline: control; measurement: remaining activity
Protein kinase C beta type, isoform beta-I (PRKCB, Homo sapiens, UniProt P05771): 101%
STK10 (Homo sapiens, UniProt O94804): 97.1%
PRKCA (Homo sapiens, UniProt P17252): 83%
PRKACA (Homo sapiens, UniProt P17612): 98.4%
IKBKB (Homo sapiens, UniProt O14920): 96.6%
STK11 (Homo sapiens, UniProt Q15831): 94.4%
Tyrosine-protein kinase Lyn, isoform B (LYN, Homo sapiens, UniProt P07948): 115%
CHEK2 (Homo sapiens, UniProt O96017): 105%
DAPK2 (Homo sapiens, UniProt Q9UIK4): 99%
CAMKK2 (Homo sapiens, UniProt Q96RR4): 105%
STK39 (Homo sapiens, UniProt Q9UEW8): 83.5%
Cyclin-dependent kinase 5, with p25 (CDK5, Homo sapiens, UniProt Q00535): 91%
GRK3 (Homo sapiens, UniProt P35626): 87.5%
DAPK1 (Homo sapiens, UniProt P53355): 76.6%
CAMK2D (Homo sapiens, UniProt Q13557): 105%
Cyclin-dependent kinase 4, with cyclin D1 (CDK4, Homo sapiens, UniProt P11802): 107%
IKBKE (Homo sapiens, UniProt Q14164): 102%
OXSR1 (Homo sapiens, UniProt O95747): 89.8%
cGMP-dependent protein kinase 1, isoform beta (PRKG1, Homo sapiens, UniProt Q13976): 91.3%
TGFBR2 (Homo sapiens, UniProt P37173): 96%
MAP3K3 (Homo sapiens, UniProt Q99759): 103%
MAPK9 (Homo sapiens, UniProt P45984): 105%
NEK2 (Homo sapiens, UniProt P51955): 101%

Block 3 — tested at: 1 µM; measurement: remaining binding
SMILES: C[C@H](NC(=O)c1cnc2n1[C@](C)(Cc1ccc(C#N)cc1)C(=O)N2c1cc(Cl)c(F)c(Cl)c1)C(=O)NC1(c2ccccn2)CC1
Mast/stem cell growth factor receptor Kit, autoinhibited (KIT, Homo sapiens, UniProt P10721); cell-free assay, competition with immobilised ligand: 100%
SLK (Homo sapiens, UniProt Q9H2G2); cell-free assay, competition with immobilised ligand: 100%
PIK3CA (Homo sapiens, UniProt P42336, I800L); cell-free assay, competition with immobilised ligand: 100%
EIF2AK1 (Homo sapiens, UniProt Q9BQI3); cell-free assay, competition with immobilised ligand: 93%
ULK1 (Homo sapiens, UniProt O75385); cell-free assay, competition with immobilised ligand: 100%
MAPK1 (Homo sapiens, UniProt P28482); cell-free assay, competition with immobilised ligand: 100%
MARK1 (Homo sapiens, UniProt Q9P0L2); cell-free assay, competition with immobilised ligand: 100%
STK32B (Homo sapiens, UniProt Q9NY57); cell-free assay, competition with immobilised ligand: 80%
CDKL3 (Homo sapiens, UniProt Q8IVW4); cell-free assay, competition with immobilised ligand: 100%
ALK (Homo sapiens, UniProt Q9UM73, L1196M); cell-free assay, competition with immobilised ligand: 100%
PDGFRA (Homo sapiens, UniProt P16234); cell-free assay, competition with immobilised ligand: 100%
PRKCI (Homo sapiens, UniProt P41743); cell-free assay, competition with immobilised ligand: 100%
CDC42BPG (Homo sapiens, UniProt Q6DT37); competition binding: 100%

Block 4 — cell line: HuT78; tested at: 2 µM; time: 48 h; baseline: untreated; measurement: viability
CN(C)Cc1cccc(N=C(c2ccccc2)c2c(O)[nH]c3cc(C(=O)N(C)C)ccc23)c1: 125%
Cc1nc(Nc2cnn(C3CCNCC3)c2)nc2c1N(C)C(=O)c1cc3ccccc3cc1N2C: 85.7%
COc1ccc(-c2ccc3ncc4c(c3c2)n(-c2ccc(N3CCNCC3)c(C(F)(F)F)c2)c(=O)n4C)cn1: 5.54%
CCc1cnn2c(NCc3ccc[n+]([O-])c3)cc(N3CCCC[C@H]3CCO)nc12: 8.12%
COc1ccc2c(Oc3ccc(NC(=O)c4c(C)n(CC(C)(C)O)n(-c5ccccc5)c4=O)nc3)ccnc2c1: 127%
Cc1cnc(Nc2ccc(N3CCN(C)CC3)cc2)nc1Nc1cccc(S(=O)(=O)NC(C)(C)C)c1: 83.4%
Cn1cnc2c(F)c(Nc3ccc(Br)cc3F)c(C(=O)NOCCO)cc21: 110%
Cc1ccc(NC(=O)c2cccc(N(C)C)c2)cc1NC(=O)c1ccc(O)cc1: 105%
COc1cc(F)c(F)c(Nc2ccc(I)cc2F)c1NS(=O)(=O)C1(C[C@H](O)CO)CC1: 93.5%
Cc1cc(C)c(/C=C2\C(=O)Nc3ccccc32)[nH]1: 103%
COc1c(C)c(C(=O)c2ccc(N)c(C(=O)O)c2)n2ccccc12: 117%

Some of these lines once more (block 2):
CAMKK2 (Homo sapiens, UniProt Q96RR4): 105%
GRK3 (Homo sapiens, UniProt P35626): 87.5%
TGFBR2 (Homo sapiens, UniProt P37173): 96%
CAMK2D (Homo sapiens, UniProt Q13557): 105%
STK10 (Homo sapiens, UniProt O94804): 97.1%
STK11 (Homo sapiens, UniProt Q15831): 94.4%
Protein kinase C beta type, isoform beta-I (PRKCB, Homo sapiens, UniProt P05771): 101%
MAPK9 (Homo sapiens, UniProt P45984): 105%
